Experimental data gathered from unrelated publications.
A part holds a random share of what one study measured.

Set 1 — technique: RNA Bind-n-Seq; form: RNA; matrix: in vitro; concentration: 365 nM; reference: no-protein control; reading: higher = stronger binding
Target: RNA binding protein fox-1 homolog 2, RRM domain, GST-SBP tag (RBFOX2, Homo sapiens, UniProt O43251-10, residues 100-194)
Notes: natural RNA segment, single round, ends assumed
All sequences stand within: GGGAGUUCUACAGUCCGACGAUC … UGGAAUUCUCGGGUGCCAA
Residues (chain): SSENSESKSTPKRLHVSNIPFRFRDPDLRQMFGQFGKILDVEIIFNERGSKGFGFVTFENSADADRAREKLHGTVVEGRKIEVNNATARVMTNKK
Under “RBNS enrichment (R)”, `CUUUGUAAGAUAGAGAUUGUUGAAAAUUCUAUUUUUGUUUUUCAAGUCCUCCCACCCCAGGACUCUAAAUUAUUGGGGUAAAAAACAGCCUUGCAAGAAAAAGGGGAGCU` is recorded as 1.08.
For `AGUUAAAAGUGCUGACUGAGCAGUCUGACCCCCACGUGGGCACCUGCACUACCAGUUGUUAGAGGAAAUUCACUCCCUCCUAGUGAGAGUUGAAAGGUCAAAUUAUUUUG`, “RBNS enrichment (R)” read 0.356.
Under “RBNS enrichment (R)”, `GAACCUCCACAAGGCUAAAUAAAAUUACAUUUGUGACCAUCAGAGAACUGAAUAAACCAUUAACUGGCCAUCCUGGUUUUGCAGAGAUCAGGUUGUUGACAGUUCCUGGU` is recorded as 0.304.
`CCAUUUUUUGUGCCUUGUGCUGUUGGAUGGUAACGACCACUCACCAUGUAAACACAGUACCUCAGUUUUCUGUCCACAGCUGCAGUCGCUCUGUCCCUCGUGCUUCACUG`: “RBNS enrichment (R)” 3.16.
For `UCUCACAGUGGAGGGCAGACUCUAACAGAUGCCAGCUGAACGCUCGCUGGCCCUGGAUGUCAUACGAGUUGGGGACCAGAAAUCUGGGCUCAGAGAACCCGUCCAGGGAG`, “RBNS enrichment (R)” read 1.96.
Under “RBNS enrichment (R)”, `UGGCUGUGGAGAAGCCCAGGCCCUUAGAAGAAUCACUGUAUUUGCCACCUGUACCUCACGGCUGCUAUGCUUGCGUGUUUCCACUGACGAUGGGGCCUCUUUCUAAAGGC` is recorded as 0.342.
`UGUGUAGUGUCCGCUAAGGUUGCAGUUGGUCCCCUGCCCUGACUUCAUGCCCCAAGCCUCAGCUAUUGGAAUGGCUUCCAUUCAGUAGCUUCUGUGUUGGUCCUUUGUAG`: “RBNS enrichment (R)” 0.405.
Under “RBNS enrichment (R)”, `GCUGCUCGCUCUCGGCUGUAUGCACCUUCUAGACAGCAGAACGUCUGGUGGGAAGACAUGCCAGUGUUGGCCAUUGUCUCCCAUUCCAAAGAGAAUAACUUUGAACUGAG` is recorded as 0.422.
For `UUAAAUCUCGCACUACAUCUGAUAUCAGGAAAUAUCUGUGAAGGACUUGGUGAUUACCUGAAAGCCCUUCUCAAGACCGAGUGUACACCACUUUCCCACACUGUGAACUA`, “RBNS enrichment (R)” read 0.318.
`UGAGCUAAAAUAUGCAAAAUCUGAACUAAAAUAUGCAAAAUCACUUUAAUAUAAUUUGACAUUUGAGGAGUACCAUUGCACUAACAGGAAAUCACUGCCGGAGACAGCCC` — result for “RBNS enrichment (R)”: 0.514.
`UGCUGCUCUGGUCCUUGUGAUAAGCCUCUCUUCGGCAUCUGAGGAGCAGCUGCAGCAAAAUCUAGGGGUGUAAGUGUAUCAGGACUUAUGUGACUUAUAUUUUGGGGAGA` — result for “RBNS enrichment (R)”: 0.785.
Under “RBNS enrichment (R)”, `UACUGUCCCCAUAGGUAUCAGACUACAAAUUAGGACAUAUGCGACGGGUGGAGGACCUCUAGGUGCGUAUGUAUUUCCCUUGGAAGGAACAGGAAGUUUGCUCUAAGAUG` is recorded as 0.538.

Set 2 — technique: universal PBM; form: double-stranded DNA, one strand shown; matrix: in vitro; concentration: 600 nM; reading: higher = stronger binding
Target: Sal-like protein 4, full length isoform A (SALL4, Homo sapiens, UniProt Q9UJQ4, residues 1-1053)
Chain of UniProt Q9UJQ4 (whole entry, looked up): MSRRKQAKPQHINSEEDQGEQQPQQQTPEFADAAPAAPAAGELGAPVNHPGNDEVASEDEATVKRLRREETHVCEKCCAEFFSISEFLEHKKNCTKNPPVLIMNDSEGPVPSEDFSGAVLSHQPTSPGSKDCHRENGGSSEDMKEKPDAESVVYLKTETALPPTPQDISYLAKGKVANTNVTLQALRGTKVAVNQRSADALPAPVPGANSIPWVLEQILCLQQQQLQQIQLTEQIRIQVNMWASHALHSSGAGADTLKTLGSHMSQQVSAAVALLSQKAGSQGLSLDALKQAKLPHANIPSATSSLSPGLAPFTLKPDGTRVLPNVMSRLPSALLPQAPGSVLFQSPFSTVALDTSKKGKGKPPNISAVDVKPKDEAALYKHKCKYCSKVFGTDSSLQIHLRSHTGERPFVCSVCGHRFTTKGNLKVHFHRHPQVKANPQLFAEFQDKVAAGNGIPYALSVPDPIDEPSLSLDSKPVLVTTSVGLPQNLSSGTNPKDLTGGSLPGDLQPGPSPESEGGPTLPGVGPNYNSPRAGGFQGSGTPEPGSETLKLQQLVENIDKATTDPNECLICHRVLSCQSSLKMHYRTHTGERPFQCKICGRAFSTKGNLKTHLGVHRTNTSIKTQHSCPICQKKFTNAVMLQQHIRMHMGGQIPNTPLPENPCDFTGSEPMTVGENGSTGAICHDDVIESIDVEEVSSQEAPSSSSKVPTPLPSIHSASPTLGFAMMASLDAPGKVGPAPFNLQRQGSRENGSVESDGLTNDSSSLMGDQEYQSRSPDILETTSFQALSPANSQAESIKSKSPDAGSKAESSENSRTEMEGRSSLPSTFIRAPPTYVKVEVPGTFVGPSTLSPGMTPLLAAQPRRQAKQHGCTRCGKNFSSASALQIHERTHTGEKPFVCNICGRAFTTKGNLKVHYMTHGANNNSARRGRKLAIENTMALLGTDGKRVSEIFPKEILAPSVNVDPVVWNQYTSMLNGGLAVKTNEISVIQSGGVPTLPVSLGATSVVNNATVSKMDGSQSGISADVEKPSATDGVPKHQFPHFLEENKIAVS
Notes: 8-mer, flanks averaged, mean of replicates
With `AATGCCTC` the E-score was -0.0395.
`AGATAACG` gave an E-score of 0.164.
With `ATTATAAC` the E-score was 0.317.
The E-score of `ACAAAGTA` is reported as 0.211.
With `AACCAAAA` the E-score was 0.254.
The E-score of `GCCGTGTA` is reported as -0.108.
For `ATATCGAA`, the E-score was 0.271.
For `AGAAGTGA`, the E-score was -0.00294.
The E-score of `ACAGATGA` is reported as 0.0722.
For `ACATAGGC`, the E-score was 0.105.
With `ACGCGCCA` the E-score was -0.191.
For `CCACCTGG`, the E-score was -0.335.
The E-score of `AGGCCGAT` is reported as -0.156.
For `TTGTCAAA`, the E-score was 0.317.
For `CGTGCAAA`, the E-score was 0.0512.
For `ATAGCCAA`, the E-score was 0.136.
`AGCCAAGC` has an E-score of -0.331.
`ATGGCGAG` has an E-score of -0.104.
The E-score of `AGCTTCAT` is reported as 0.0565.
The E-score of `CGCTGAGA` is reported as -0.173.
For `ACATGTAA`, the E-score was 0.271.
`AGAGATCA` has an E-score of 0.00982.
`AGGAGCAG` gave an E-score of -0.253.
The E-score of `TAGACAGA` is reported as 0.0515.
For `GCATTCAC`, the E-score was 0.0905.

Set 3 — technique: competition protein-binding microarray; form: double-stranded DNA, one strand shown; matrix: in vitro; concentration: 2 µM; with: Cbf1 competitor, 0.05 µM; reading: higher = stronger binding; all sequences stand within: … GTCTTGATTCGCTTGACGCTGCTG
Target: Phosphate system positive regulatory protein PHO4, full length, GST-tagged (PHO4, Saccharomyces cerevisiae, UniProt P07270, residues 1-312)
Notes: whole 60-bp probe, lowest competitor level
Residues (chain): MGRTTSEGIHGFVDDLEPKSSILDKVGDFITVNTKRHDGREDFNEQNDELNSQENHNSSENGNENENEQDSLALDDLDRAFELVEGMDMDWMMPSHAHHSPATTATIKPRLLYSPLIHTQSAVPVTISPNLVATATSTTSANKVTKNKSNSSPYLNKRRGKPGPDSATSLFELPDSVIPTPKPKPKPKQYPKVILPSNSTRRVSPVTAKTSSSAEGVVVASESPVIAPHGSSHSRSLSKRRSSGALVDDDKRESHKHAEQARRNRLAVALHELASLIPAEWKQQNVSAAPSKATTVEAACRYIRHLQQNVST
The fluorescence intensity of `CTGGTGTCTAATATGCACATGCCTGGTACTACCAGT` is reported as 9890 a.u.
`AGAATAATGTAAGGTACCGTGGGTACCGTACCATCA` gave a fluorescence intensity of 6120 a.u.
`GCTTTAGTTGCTCTTCGCGTGGTGAATATTTGCAGA` has a fluorescence intensity of 6270 a.u.
`AAAGCGGTAATTTGCGCTGTGGGTGCAGATATCTAT` gave a fluorescence intensity of 4050 a.u.
`TTGATGTACTTGTCTCACGTGGAAGCAACCATTTTG` has a fluorescence intensity of 13800 a.u.
The fluorescence intensity of `AGGCAGGCGAACATCAACGTGATGGTTACCAACAGC` is reported as 10000 a.u.
`GAATTTACTAACGAACTCGTGTTCCGGACCGCTGGC` has a fluorescence intensity of 8180 a.u.
With `TGTCACAGTAGTTATAGCTAAGGTCAATAAGTAGTT` the fluorescence intensity was 2870 a.u.
The fluorescence intensity of `CTTTCCCGATCTTGCACCGTGGGTGTAGCACATTTG` is reported as 8290 a.u.
For `GACGGAAGACTCTCCTCCGTGCGATCTCGTCTTCAT`, the fluorescence intensity was 4610 a.u.
With `AGGCCACCGGGAAGTCACGTGGCCGGCTGCTGCCTC` the fluorescence intensity was 13900 a.u.
`CGTCCTAGTGATTGGTCTGTGGGTGCCATGAGGAAG` has a fluorescence intensity of 6700 a.u.
The fluorescence intensity of `CATACCCAACCTTGTAGTGTGGGTGAAGATATTTGT` is reported as 5630 a.u.
`CTTCTGTAAATTTTTCACGTGTTATGACGCGCCCCG` gave a fluorescence intensity of 13700 a.u.
The fluorescence intensity of `CGGGGTTAAGTTTGGGACGTGGGTGGCTTGCAGCAG` is reported as 7590 a.u.
The fluorescence intensity of `CGTCCTAGTGATTGCTTTGTGGGTGCCATGAGGAAG` is reported as 7300 a.u.
The fluorescence intensity of `CTTTCCCGATCTTGTCACATGACTTTAGCACATTTG` is reported as 6090 a.u.
`AGCAACCTTCTTGGCACCGTGCTTTTTGGCGACCTT` has a fluorescence intensity of 7000 a.u.

Set 4 — technique: RNA Bind-n-Seq; form: RNA; matrix: in vitro; concentration: 200 nM; notes: whole 134-nt RNA, ends assumed; with: 150 mM LiCl; reference: input library; reading: higher = stronger binding; all molecules: 7-deaza-guanosine replaces G
Target: Fragile X messenger ribonucleoprotein 1, C-terminal low-complexity region (Fmr1, Mus musculus, UniProt P35922)
All sequences stand within: GGGAGUUCUACAGUCCGACGAUC … UGGAAUUCUCGGGUGUCAAGG
`UGGGAGGUGCAUUUUGUUUAUUUUUUUAGCUCAUUUCCAGGGGUGGGAAUUUUUUUUUAAUAUGUGUCAUGAAUAAAGUUGUUUUUGAAA` has a log2 enrichment of 0.256.
With `UCCUCAAGUCCUGUGCUACACAUCGUAUGUACCGAAUCGGAGGAAAGGAGGAAAGUAUUAUGUUACGCCGUUCGGAUCUGCACUUCCAGC` the log2 enrichment was -2.11.
The log2 enrichment of `UCAAGUCCUGUGCUACACAUCGUAUGUACCGAAUCGGGCCGGGGCCGGGGCCGGGAAAGUAUUAUGUUACGCCGUUCGGAUCUGCACUUC` is reported as -0.063.
`UAACUUUAGAGGAGGAUCUGAUGGAUAUGGCAGUGGACGUGGAUUUGGGGAUGGCUAUAAUGGGUAUGGAGGAGGACCUGGAGGGGGCAA` has a log2 enrichment of 0.892.
The log2 enrichment of `UAACUUUAGAGGAGGAUCUGAUGGAUAUGGCAGUGUACGUGGAUUUGGGGAUGGCUAUAAUGGGUAUGGAGGAGGACCUGGAGGUGGCAA` is reported as 0.547.
`UCCUGUGCUACACAUCGUAUGUACCGAAUCGGGUUUUUUUGGGAAAAAAAGGGUUUGGGAAAGUAUUAUGUUACGCCGUUCGGAUCUGCA` gave a log2 enrichment of -2.78.
`AGUCCUGUGCUACACAUCGUAUGUACCGAAUCGGGGAAAAGGAAAAGGGGAAAAGGGGAAAGUAUUAUGUUACGCCGUUCGGAUCUGCAC` has a log2 enrichment of 0.0815.
`CAAGUCCUGUGCUACACAUCGUAUGUACCGAAUCGGAAAAAAAGGAGGAAAAAGGAAAGUAUUAUGUUACGCCGUUCGGAUCUGCACUUC` has a log2 enrichment of -0.722.
The log2 enrichment of `UCAGGAAGUAAAAACAAAUGGAAAUGCUUCGGAUAGUGGCAGGGGUGGGGGUUGCUAAGGAAAGGGUGGGAUGGGAGUGGGUAAAGAGUU` is reported as 1.06.
`UCCUCAAGUCCUGUGCUACACAUCGUAUGUACCGAAUCGGUUGGUUGGUUGGAAAGUAUUAUGUUACGCCGUUCGGAUCUGCACUUCCAG` gave a log2 enrichment of 0.994.
With `UGUGCUACACAUCGUAUGUACCGAAUCGGGGUUUUUUUGGGGAAAAAGGGGAAAAAAAGGGGAAAGUAUUAUGUUACGCCGUUCGGAUCU` the log2 enrichment was -1.07.

Some of these lines once more (set 2):
For `GCATTCAC`, the E-score was 0.0905.
The E-score of `AGGCCGAT` is reported as -0.156.
For `CCACCTGG`, the E-score was -0.335.
For `TTGTCAAA`, the E-score was 0.317.
